Assay results from different studies.
A part holds a random share of what one study measured. Changes are numbered by the printed parent chain.

Series 1
Target: Interferon regulatory factor 3, full length, phosphomimetic (IRF3, Homo sapiens, UniProt Q14653, residues 1-427, S386D/S396D/S398D/S402D/T404D/S405D)
Method: protein-binding microarray
Form: double-stranded DNA, one strand shown
Sample: in vitro
Tested at: 2540 nM top
Notes: 60-bp whole probe
Together with: salmon DNA 0.4 mg/ml
Relative to: random background probes
Direction: higher = stronger binding
All sequences stand within: GCCTAGCAC … GTCTTGATTCGCTTGACGCTGCTG
Construct (chain): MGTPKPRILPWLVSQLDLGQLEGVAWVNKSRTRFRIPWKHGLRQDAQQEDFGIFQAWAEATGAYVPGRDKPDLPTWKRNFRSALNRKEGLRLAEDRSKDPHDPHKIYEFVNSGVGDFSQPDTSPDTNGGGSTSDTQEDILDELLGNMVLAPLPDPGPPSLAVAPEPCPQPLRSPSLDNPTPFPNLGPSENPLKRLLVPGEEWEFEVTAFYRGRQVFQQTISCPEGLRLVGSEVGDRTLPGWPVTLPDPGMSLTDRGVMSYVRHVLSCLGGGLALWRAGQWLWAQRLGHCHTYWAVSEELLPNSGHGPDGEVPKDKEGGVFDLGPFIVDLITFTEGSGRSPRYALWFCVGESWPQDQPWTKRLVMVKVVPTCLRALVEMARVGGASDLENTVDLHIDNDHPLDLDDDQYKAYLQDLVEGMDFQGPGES
| Oligonucleotide | fitted relative affinity |
| --- | --- |
| TTAGGACTGCTTATCCTTTAGTGCTAG | -0.212 z-score |
| TTAGGACTGCACACTGGGTTAGTGCTA | -0.786 z-score |
| CTTCCCCTCTCTTTCCAACTGTGCTAG | 2.37 z-score |
| TTAGTTTTCGGGTTTCGATTAGTGCTA | 3.97 z-score |
| TCATGTATGGATGTGTTACTGTGCTAG | -0.25 z-score |
| TTAGGTTTCGGTTTCGGTTAGTGCTAG | 11.4 z-score |
| TTAGGTCTCGTTTTCGGTTAGTGCTAG | 3.22 z-score |
| GACGGACTGGACTATCAGGACGTGCTA | -0.343 z-score |
| GACGGTTTCGGTTTCAGGACGTGCTAG | 10.3 z-score |
| GACGAACTGAGTCTAGAGACGTGCTAG | -0.345 z-score |
| CTGTTTTTGCTTTCCTTCATGTGCTAG | 3.22 z-score |
| GACGATCTCAGTCTAGAGACGTGCTAG | 0.621 z-score |
| GACGAACTGGGACTGGGGACGTGCTAG | -0.659 z-score |
| TCACAGAAGGGAAACAGGACTGTGCTA | 2.26 z-score |
| GACGGTTTCGGGACTGTGGACGTGCTA | 4.7 z-score |
| GCCGAACTGGGGTATCGAGACGTGCTA | 0.629 z-score |
| AATCATTTTCGTTTTTATTAGTGCTAG | 6.43 z-score |

Series 2
Target: Histone acetyltransferase KAT6A, winged helix 1, GST fusion (KAT6A, Homo sapiens, UniProt Q92794, residues 1-85)
Method: protein binding microarray
Form: double-stranded DNA, one strand shown
Sample: in vitro
Tested at: not given
Notes: 8-mer, flanks averaged, mean of 2 arrays, mostly near background
Relative to: not given
Direction: higher = stronger binding
Target sequence (chain): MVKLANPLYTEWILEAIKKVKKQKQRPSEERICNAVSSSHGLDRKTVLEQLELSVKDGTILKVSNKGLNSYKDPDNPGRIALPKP
| Oligonucleotide | E-score |
| --- | --- |
| ACTATTCT | -0.011 |
| ACAAGTGG | -0.163 |
| GTACCGGA | 0.122 |
| GGGACGTA | 0.157 |
| GCACGTGA | -0.225 |
| ACAGGAAG | -0.0869 |
| ATGGTTGG | -0.045 |
| CACCGAGC | 0.0697 |
| CTGTTCAA | -0.234 |
| ACTGCACG | 0.0684 |
| CATCCCCA | -0.28 |
| ATGATCGC | 0.111 |
| GACCTTAA | -0.113 |
| CATGTACC | 0.116 |
| GTGTGCAA | -0.202 |
| GATTTGGA | -0.0809 |
| TCGGCGCA | 0.364 |
| AATGGTGT | -0.287 |
| AATATATC | -0.136 |
| AAAACGCT | -0.0442 |
| AGAGGCTC | -0.162 |
| TTATGCAA | -0.221 |
| CAACGTTC | 0.0437 |
| CAGAGAAG | -0.111 |
| AGAATGAG | -0.216 |

Series 3
Target: RING finger protein unkempt homolog, zinc fingers 1-6, GST-SBP tag (UNK, Homo sapiens, UniProt Q9C0B0, residues 30-357)
Chain of UniProt Q9C0B0 (30-357, looked up): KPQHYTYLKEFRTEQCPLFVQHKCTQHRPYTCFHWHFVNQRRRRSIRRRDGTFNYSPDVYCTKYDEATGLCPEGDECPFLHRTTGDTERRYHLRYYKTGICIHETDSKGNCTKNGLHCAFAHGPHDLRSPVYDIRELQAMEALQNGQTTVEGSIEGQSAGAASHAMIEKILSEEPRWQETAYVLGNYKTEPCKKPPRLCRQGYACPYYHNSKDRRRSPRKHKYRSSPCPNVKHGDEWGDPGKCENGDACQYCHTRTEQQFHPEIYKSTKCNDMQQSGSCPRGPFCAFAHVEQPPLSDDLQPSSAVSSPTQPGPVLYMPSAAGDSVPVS
Method: RNA Bind-n-Seq
Form: RNA
Sample: in vitro
Tested at: not given
Notes: RNA with constant flanks, human-mouse chimeric sites, ends assumed
Relative to: input RNA pool
Direction: higher = stronger binding
| Oligonucleotide | bound/input enrichment [ratio] |
| --- | --- |
| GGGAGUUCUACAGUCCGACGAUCGAUCCACAGUGGUCUGAGGAGCAACUCAUUGCUGCAAAAUUCUGUUUUGCUGGCCUUGUUAUAGGGCAGACUGAAGUGGACAUCAUGAGUCAUGCUACACAAGCUAUAUUUGAAAUACUGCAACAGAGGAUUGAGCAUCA | 0.146 |
| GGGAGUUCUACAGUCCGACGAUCUUUGUAUUUAUGCUAAGCACACGUGCUGGUGGUCUGGGCAUCAAUCUUGCAACUGCUGAUGUAGUAAUUUUAUAUGACUCAGAUUGGAAUCCGCAAGUUGAUCUUCAGGCUAUGGACCGUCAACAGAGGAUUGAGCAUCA | 0.423 |
| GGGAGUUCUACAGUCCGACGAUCAUGGAGAAGGAUUCUCUGCCCCGCUUUGUGCGCUCUGAAUUUUAUAAGGAGCUAAUCAAGUAGUCAUUUAGCCAGGCUUCCAAAAGUUGCCCUGUGAGUUGAGUUACAUAAUAACCCGCACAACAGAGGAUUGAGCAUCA | 0.6 |
| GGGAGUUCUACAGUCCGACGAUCUUGAAAAACACAGAUAUCAAAGUUGUUGACUUUGGAAGUGCAACGUAUGAUGAUGAACAUCACAGUACUUUGGUGUCUACCCGGCACUACAGAGCUCCCGAGGUCAUUUUGGCUCUAGGUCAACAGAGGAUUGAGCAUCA | 0.295 |
| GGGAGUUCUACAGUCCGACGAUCGCAGGAUCUUCUAAAUACCAGUGGGACAUUAUGAAAUCCCUUGGGCUCUCUGAUGACGACAUAGUGAAGUUUUCUGAAGCAGAGCACUGGCUUGAUUAUUUCCCGCCACUGGCCGUUCAGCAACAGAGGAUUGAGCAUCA | 0.122 |
| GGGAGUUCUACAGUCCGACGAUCGAGCGUCUUGCCCGCACUGGGAUCAUCGUGACCACUAGUGAGGCUGUCCUCCUACAGCUGGUAGCUGACAAAGACCACCCGAAGUUCAAGGAAAUUCAGAACCUAAUUAAGGCGAGUGCCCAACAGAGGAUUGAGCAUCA | 0.164 |
| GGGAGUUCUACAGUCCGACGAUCGAUCAUGGAACCAGAAUAGAAAUGAAGAUGAGAUUACCCAGACGAGCCAAAACAGCUGCGCUACAGAAAAGUAAACUUAACCUUGCAGAGUUCCUUAAUGAAGAUACAAGUUAAGAGAGCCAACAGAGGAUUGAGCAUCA | 1 |
| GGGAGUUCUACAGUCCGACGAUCACUCUUGACUCUUUCCAUUCUCGUCCCUUCCCUCUUGAUAUUCAAGGCCAUGAAUCCCAAAAUAACAGUCUUAGUGGGAGGCUAGCAAACAGAGGUGGAAUAAAUCCACCCCAGUGUCUCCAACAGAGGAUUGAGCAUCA | 0.418 |
| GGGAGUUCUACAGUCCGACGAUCAGAAUCUUGGGACUGUUUUGCUUGAUUGGUCAUUGAUAGCUUAACAAACAUGGAGAUAAGAUUAGAAAUCUUGACAUCAACAAGUAUUAAGCAGAAAAAACCAUGGCCACGUGUCUCCUGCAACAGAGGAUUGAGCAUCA | 0.133 |
| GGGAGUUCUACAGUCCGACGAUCAAAGAACCUCUCUCUGAUGAAGAUGAGGAAGACAAUGAUGAUGUUGAACCCAUUUCUGAAUUUCGAUUUGUGCCUAGUGAUAAGUCAGCAUUGGAGGCGAUGUUCACAGCAAUGUGUGAGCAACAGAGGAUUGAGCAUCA | 0.401 |
| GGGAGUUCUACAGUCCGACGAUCACCUCCCCCUCCCGCCUGCUUUUUGAACCGCUUUUUGAAAGUGUGUUGGCGUUUCUUUUCCUUCCCCAUACAAAGUGAUUACAGUUUCCCCCGCAAGGGUCUAUCGAAGGGCUUGACGGACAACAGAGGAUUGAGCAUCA | 0.609 |

Series 4
Target: CCND2, cyclin fold, Cln2 fusion (human)
Method: yeast growth competition, sequencing
Sample: yeast
Notes: weak parent motif
Relative to: not given
Direction: higher = stronger binding
Starting sequence: DNAH7 docking peptide (human); HELFQRLDFDNDG
| Substitution | normalised enrichment score |
| --- | --- |
| D12A | 0.0156 |
| H1A | 0.33 |
| R6A | 0.023 |
| N11A | 0.198 |
| F9A | -0.259 |
| E2A | 0.175 |

Series 5
Target: ABI1, truncated, D143A, DHFR fusion (Arabidopsis thaliana)
Method: DHFR PCA, deep sequencing
Sample: yeast
Notes: methotrexate growth selection, single substitutions
Together with: (+)-ABA 0.39 µM
Relative to: wild-type fitted maximum
Direction: higher = stronger binding
Starting sequence: PYL1, truncated, DHFR fusion (Arabidopsis thaliana); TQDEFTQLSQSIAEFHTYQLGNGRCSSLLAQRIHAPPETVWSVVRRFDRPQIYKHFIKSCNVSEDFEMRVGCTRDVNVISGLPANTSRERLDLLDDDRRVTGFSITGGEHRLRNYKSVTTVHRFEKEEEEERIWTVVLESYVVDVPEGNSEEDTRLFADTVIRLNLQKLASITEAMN
| Substitution | relative binding score [%] |
| --- | --- |
| T86G | 15.6 |
| S63T | 34 |
| F66S | 11.1 |
| V145P | -16.8 |
| E14G | 2.99 |
| T173V | 30.6 |
| T17W | -13.2 |
| R155D | -39.8 |
| L138C | 2.52 |
| R69M | 26 |
| E152K | -2.09 |
| Q7M | 41.7 |
| L82C | 12.5 |
| I162R | 9.89 |
| E147N | 21.2 |
| A35K | -3.73 |
| R98K | 46.8 |
| A30M | 57.4 |
| I172C | -3.13 |

Series 6
Target: Sal-like protein 4, full length isoform A (SALL4, Homo sapiens, UniProt Q9UJQ4, residues 1-1053)
Chain of UniProt Q9UJQ4 (whole entry, looked up): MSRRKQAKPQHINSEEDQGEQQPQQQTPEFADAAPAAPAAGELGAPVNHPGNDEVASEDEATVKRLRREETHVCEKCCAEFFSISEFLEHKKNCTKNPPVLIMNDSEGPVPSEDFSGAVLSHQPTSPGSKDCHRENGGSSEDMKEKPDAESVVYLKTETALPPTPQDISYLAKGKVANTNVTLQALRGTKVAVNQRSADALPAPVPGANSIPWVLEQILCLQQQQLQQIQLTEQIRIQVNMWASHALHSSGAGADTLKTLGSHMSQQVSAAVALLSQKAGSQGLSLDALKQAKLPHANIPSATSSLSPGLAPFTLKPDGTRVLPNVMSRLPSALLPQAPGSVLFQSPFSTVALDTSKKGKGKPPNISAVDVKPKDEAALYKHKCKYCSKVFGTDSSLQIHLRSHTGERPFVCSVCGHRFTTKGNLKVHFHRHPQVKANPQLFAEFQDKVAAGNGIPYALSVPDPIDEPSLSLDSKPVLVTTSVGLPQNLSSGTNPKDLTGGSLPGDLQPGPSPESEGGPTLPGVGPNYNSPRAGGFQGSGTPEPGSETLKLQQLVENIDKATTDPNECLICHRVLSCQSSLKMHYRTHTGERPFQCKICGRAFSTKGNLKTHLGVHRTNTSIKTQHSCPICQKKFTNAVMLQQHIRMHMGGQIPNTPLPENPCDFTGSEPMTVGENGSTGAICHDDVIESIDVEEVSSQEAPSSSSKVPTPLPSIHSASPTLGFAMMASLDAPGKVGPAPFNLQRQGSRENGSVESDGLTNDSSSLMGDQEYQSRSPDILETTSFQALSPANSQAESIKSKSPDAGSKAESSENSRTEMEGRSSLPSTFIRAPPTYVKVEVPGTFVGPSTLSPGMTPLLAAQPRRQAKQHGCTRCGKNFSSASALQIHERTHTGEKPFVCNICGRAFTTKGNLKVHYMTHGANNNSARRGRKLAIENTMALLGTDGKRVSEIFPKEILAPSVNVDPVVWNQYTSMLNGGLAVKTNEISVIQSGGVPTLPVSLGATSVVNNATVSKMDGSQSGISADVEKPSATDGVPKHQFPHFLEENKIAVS
Method: universal PBM
Form: double-stranded DNA, one strand shown
Sample: in vitro
Tested at: 600 nM
Notes: 8-mer, flanks averaged, mean of replicates
Direction: higher = stronger binding
| Oligonucleotide | E-score |
| --- | --- |
| GAGCAGCC | -0.313 |
| CTACCACC | -0.263 |
| CGCCGGTA | -0.288 |
| AAGGATAC | -0.117 |
| AAAGGTAC | -0.00351 |
| AAAGTCCG | -0.203 |
| GGTGTTAA | 0.0331 |
| AAAAGGTC | -0.0291 |
| ATCTAACA | 0.141 |
| CCGAGATC | -0.305 |
| CAACAGTA | -0.0363 |
| AATGACAG | 0.0851 |
| ATTAGCAG | 0.0684 |
| ACCAGGGA | -0.292 |
| ACCAAGAG | -0.128 |
| AGGGTCTG | -0.302 |
| GCCAAAAA | 0.183 |
| CAGACTTA | 0.0138 |
| CACAAACA | 0.219 |
| CAGTACTA | 0.142 |
| CTGTCGGC | -0.294 |
| ACACATCA | 0.0181 |
| GTCGCATA | 0.141 |

Repeated from above (series 5):
| Substitution | relative binding score [%] |
| --- | --- |
| V145P | -16.8 |
| E14G | 2.99 |
| T173V | 30.6 |
| T17W | -13.2 |
| R155D | -39.8 |
| L138C | 2.52 |
| R69M | 26 |
| E152K | -2.09 |
| Q7M | 41.7 |
| L82C | 12.5 |
